Published values collected from several papers.
Numbered parts are unrelated; each lists some results of a single study. Substitutions count along the parent as printed.

Block 1
Target: CCNA2, cyclin fold, Cln2 fusion (human)
Method: yeast growth competition, sequencing
Medium: yeast
Notes: strong parent motif
Relative to: not given
Reading: higher = stronger binding
Parent: RB1 docking peptide (human); PKPLKKLRFDIEG
Under “normalised enrichment score”, `P1W` is recorded as 2.1.
For `K5T`, “normalised enrichment score” read 0.954.
`L4D`: “normalised enrichment score” 1.94.
For `E12I`, “normalised enrichment score” read 2.61.
Under “normalised enrichment score”, `K5H` is recorded as 1.2.
For `F9N`, “normalised enrichment score” read 1.89.
For `P3M`, “normalised enrichment score” read 1.02.
Under “normalised enrichment score”, `I11K` is recorded as 1.15.
`P1R` — result for “normalised enrichment score”: 1.4.
`R8A` — result for “normalised enrichment score”: 1.02.
Under “normalised enrichment score”, `L4W` is recorded as 1.31.
`L7K` — result for “normalised enrichment score”: 1.37.
For `L7Q`, “normalised enrichment score” read 0.285.
`K5L`: “normalised enrichment score” 1.16.
`R8P` — result for “normalised enrichment score”: 0.913.
Under “normalised enrichment score”, `F9W` is recorded as 1.22.
`K2P`: “normalised enrichment score” 0.461.
Under “normalised enrichment score”, `L7A` is recorded as 1.15.
`K5S` — result for “normalised enrichment score”: 2.3.
`P1S`: “normalised enrichment score” 0.757.
Under “normalised enrichment score”, `E12R` is recorded as 0.852.

Block 2
Target: ABI1, truncated, D143A, DHFR fusion (Arabidopsis thaliana, UniProt P49597)
Method: DHFR PCA, dose-response
Medium: yeast
Notes: Hill fit, not affinity
Together with: (+)-ABA, dose series
Reading: lower = more sensitive
Parent: PYL1, truncated, DHFR fusion (Arabidopsis thaliana, UniProt Q8VZS8); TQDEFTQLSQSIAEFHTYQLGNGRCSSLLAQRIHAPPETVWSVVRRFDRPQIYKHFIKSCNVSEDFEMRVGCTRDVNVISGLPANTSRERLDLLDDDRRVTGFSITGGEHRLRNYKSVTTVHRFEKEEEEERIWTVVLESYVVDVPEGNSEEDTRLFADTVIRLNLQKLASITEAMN
`G108L` gave an ABA EC50 of 2500 µM.
For `N149S`, the ABA EC50 was 24.9 µM.
The ABA EC50 of `H110N` is reported as 22.6 µM.
With `E129G` the ABA EC50 was 2.29 µM.
With `N77V` the ABA EC50 was 7.07 µM.
The ABA EC50 of `F124I` is reported as 2.65 µM.
`T120Y` gave an ABA EC50 of 1110 µM.
`F103C` gave an ABA EC50 of 1300 µM.
For `G102H`, the ABA EC50 was 1680 µM.
`V78Y` gave an ABA EC50 of 2.04 µM.
With `R123K` the ABA EC50 was 2.13 µM.

Block 3
Sequence: B1 (ANKIB1 RING domain)
Method: yeast two-hybrid
Medium: yeast
Notes: mostly zero background
Relative to: not given
Reading: higher = stronger interaction
B1: ANKIB1 RING domain (UniProt Q9P2G1); chain LSPGDLDTSLCDICMCSISVFEDPVDMPCGHDFCRGCWESFLNLKIQEGEAHNIFCPAYDCFQLVPVDIIE
The “lacZ reporter activity” was 0 (UBE2G1 UBC core domain (UniProt P62253)).
It gave 0 for “lacZ reporter activity” (UBE2R2 UBC core domain (UniProt Q712K3)).
For UBE2Z UBC core domain (UniProt Q9H832): “lacZ reporter activity” read 0.
The “lacZ reporter activity” was 0 (UBE2J2 UBC core domain (UniProt Q8N2K1)).
It gave 0 for “lacZ reporter activity” (UBE2J1 UBC core domain (UniProt Q9Y385)).
UBE2Q1 UBC core domain (UniProt Q7Z7E8) — “lacZ reporter activity”: 0.
The “lacZ reporter activity” was 0 (UBE2S UBC core domain (UniProt Q16763)).
It gave 0 for “lacZ reporter activity” (UBE2I UBC core domain (UniProt P63279)).
UBE2T UBC core domain (UniProt Q9NPD8) — “lacZ reporter activity”: 0.

Block 4
Target: RING finger protein unkempt homolog, zinc fingers 1-6, GST-SBP tag (UNK, Homo sapiens, UniProt Q9C0B0, residues 30-357)
Method: RNA Bind-n-Seq
Molecule type: RNA
Medium: in vitro
Concentration: not given
Notes: RNA with constant flanks, ends assumed
Relative to: input RNA pool
Reading: higher = stronger binding
Target sequence (chain): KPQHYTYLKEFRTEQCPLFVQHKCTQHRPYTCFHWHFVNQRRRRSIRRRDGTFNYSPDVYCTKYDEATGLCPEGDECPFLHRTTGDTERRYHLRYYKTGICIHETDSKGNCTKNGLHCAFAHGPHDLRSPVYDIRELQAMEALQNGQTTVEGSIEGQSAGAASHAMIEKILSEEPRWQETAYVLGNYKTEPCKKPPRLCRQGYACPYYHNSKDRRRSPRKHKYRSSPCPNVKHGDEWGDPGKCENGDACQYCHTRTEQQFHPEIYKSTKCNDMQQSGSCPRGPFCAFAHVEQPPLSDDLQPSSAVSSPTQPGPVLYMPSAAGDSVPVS
With `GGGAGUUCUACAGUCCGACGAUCGGGCACAUCCAGCUGAUGAUCCCUGGAGAGUCGGCUUGCUUCGCGUGUGCGCCACCACUUGCCGUUGCUUCAAAUAUUGAUGAAAAAACCCUGAAACGAGAAGGCGUCUGCGCAGCCAGUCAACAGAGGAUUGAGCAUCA` the bound/input enrichment was 0.127 ratio.
For `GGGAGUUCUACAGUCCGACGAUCGACAAAGAGGCUCUGACAGAGGAGAAGUGCCUCCCACGUCAGAACCGUUACGAUGGGCAGGCCGCUGUAUUUGGGUCAGACUUUCAGGAGAAGCUGAGCAAGCAAAAGUACUUCCUGGUGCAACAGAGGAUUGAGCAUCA`, the bound/input enrichment was 0.0564 ratio.
For `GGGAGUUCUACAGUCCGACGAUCGACAGUGAAGAAGAAAUUAGAGAAGCAUUCCGUGUGUUUGAUAAGGAUGGCAAUGGCUAUAUCCGUGCUGCAGAACUUCGCCAUGUGAUGACAAACCUUGGAGAGAAGUUAACAGAUGAACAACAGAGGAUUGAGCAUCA`, the bound/input enrichment was 0.569 ratio.
The bound/input enrichment of `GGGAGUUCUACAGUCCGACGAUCUCCAAGUUACAAAAGUUUGAGGUGCAGAGGGAAGGCCAGAUUUUUUUUUUAAUGAAAUUAUACCGAUCCGAUCUCAGUAUUUAAACUGUUCCUCAAUUUUGUGAGGCUGUGUUGGAAAUACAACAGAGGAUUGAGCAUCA` is reported as 0.86 ratio.
`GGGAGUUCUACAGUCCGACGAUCUUUCUAGUUUGAGCUUUCUUUUUGGCCGUCUUUAAAAAAAUUUUUUUUUUUAAUCUAUAAAACCGACAAGAGCUAGUUCUACAAUGUCCAAGUCAUUCCAGCAGUCAUCUCUCAGUAGGGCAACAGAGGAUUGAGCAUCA` gave a bound/input enrichment of 0.595 ratio.
`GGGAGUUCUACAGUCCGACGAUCAGUGAAGAAAAUGCUGAGCCGGAUCUCGAUGACAAUGAGGAGGAGGAGGAGCCUGCUGCCGAAAUUGAACCUGAGCCAGAGCCUCAGCCCCAGCCUCCGCCUCCACCUCAGCCUGUGGCCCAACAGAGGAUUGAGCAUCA` has a bound/input enrichment of 0.109 ratio.
`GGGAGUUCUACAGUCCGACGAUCAGAAAUUUUUGUAUUUUUCUUUUACAGAUUUUAACUACGAUGAUUUUUUUCUAAAUUAAGCCGGUCAGGUUGUCAAAGUCAGUGCAAUAGUAAUACAACUUCCUUUUUAAGAAAACCCAACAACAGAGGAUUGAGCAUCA` has a bound/input enrichment of 0.364 ratio.
For `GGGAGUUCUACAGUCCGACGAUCGGAAUAUUAGGACUGAGGCAACACCUAGGGACACCAAGUGAUGAAGAUAAUGAUUCCUCUUUCCGUGAUUGUCUUUCUUCUCCUUCAUCUAGUCUGCAUUUUGGAGAUUCUGAUACUGUGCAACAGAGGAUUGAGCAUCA`, the bound/input enrichment was 0.263 ratio.
`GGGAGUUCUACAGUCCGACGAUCGGUUUCAAUGAAACUGAUGAUUUAAAGAGAGCCGAAAGUAUGCUUCAACAAGCAGAUAAAUCCGGUUGCAGACAGUUCGUUACUCCAGCUGAUGUUGUCAGCGGAAACCCCAAACUGAACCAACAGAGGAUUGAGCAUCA` has a bound/input enrichment of 0.0918 ratio.
`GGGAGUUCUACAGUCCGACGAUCACCACUGAGAGCAGUCAAUCCUUUGUUGCAGUACAUCACAGUGAGGAAGGCAGGGAUACCUCCGGAAGCAGUACAAAUCUUCAUAAUCACUCUGAGGGAGAGUAUAUUCCAGGAGCUUGUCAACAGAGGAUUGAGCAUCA` gave a bound/input enrichment of 0.646 ratio.
With `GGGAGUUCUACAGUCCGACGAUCAAUCUCUGGGAACACUAUUAUAAAGAUGGACAAGCCAUUAUUUUUGUCAUUGAUAGCCGUGAUAAGUUAAGAAUGGUUGUGGCCAAAGAAGAGCUUGAUACCCUUCUGAAUCACCCAGAUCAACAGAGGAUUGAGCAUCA` the bound/input enrichment was 0.13 ratio.
